Measurements gathered from unrelated publications.
Parts stem from different laboratories: compare values within a part only.
UniProt Q9UPE1, sequence (whole entry, looked up): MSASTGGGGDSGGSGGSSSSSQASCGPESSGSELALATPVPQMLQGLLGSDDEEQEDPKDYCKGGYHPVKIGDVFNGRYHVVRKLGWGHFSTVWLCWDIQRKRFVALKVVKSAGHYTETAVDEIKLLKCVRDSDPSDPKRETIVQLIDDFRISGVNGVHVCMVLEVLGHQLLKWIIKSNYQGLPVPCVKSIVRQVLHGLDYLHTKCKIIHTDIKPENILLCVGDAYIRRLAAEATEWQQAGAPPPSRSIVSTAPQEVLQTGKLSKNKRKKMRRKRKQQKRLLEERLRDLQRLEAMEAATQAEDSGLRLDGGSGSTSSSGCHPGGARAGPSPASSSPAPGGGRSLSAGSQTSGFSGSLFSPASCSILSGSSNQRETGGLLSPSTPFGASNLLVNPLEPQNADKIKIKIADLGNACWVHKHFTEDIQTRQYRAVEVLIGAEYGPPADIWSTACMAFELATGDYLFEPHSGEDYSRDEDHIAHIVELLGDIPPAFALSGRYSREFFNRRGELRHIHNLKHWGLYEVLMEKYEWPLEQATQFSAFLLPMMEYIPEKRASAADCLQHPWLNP
UniProt Q13882, sequence (whole entry, looked up): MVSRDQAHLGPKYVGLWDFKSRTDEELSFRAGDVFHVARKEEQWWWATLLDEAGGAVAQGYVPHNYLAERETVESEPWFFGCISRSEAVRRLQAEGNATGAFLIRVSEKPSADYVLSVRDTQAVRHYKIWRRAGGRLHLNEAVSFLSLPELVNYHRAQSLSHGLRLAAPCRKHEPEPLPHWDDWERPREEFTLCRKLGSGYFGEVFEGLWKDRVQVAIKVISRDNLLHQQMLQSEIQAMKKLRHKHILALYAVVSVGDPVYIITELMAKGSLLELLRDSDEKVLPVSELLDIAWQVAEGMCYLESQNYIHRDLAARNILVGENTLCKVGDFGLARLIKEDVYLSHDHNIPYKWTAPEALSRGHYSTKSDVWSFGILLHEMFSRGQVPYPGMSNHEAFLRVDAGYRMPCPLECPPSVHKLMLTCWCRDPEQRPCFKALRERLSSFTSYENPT
UniProt Q86Y07, sequence (whole entry, looked up): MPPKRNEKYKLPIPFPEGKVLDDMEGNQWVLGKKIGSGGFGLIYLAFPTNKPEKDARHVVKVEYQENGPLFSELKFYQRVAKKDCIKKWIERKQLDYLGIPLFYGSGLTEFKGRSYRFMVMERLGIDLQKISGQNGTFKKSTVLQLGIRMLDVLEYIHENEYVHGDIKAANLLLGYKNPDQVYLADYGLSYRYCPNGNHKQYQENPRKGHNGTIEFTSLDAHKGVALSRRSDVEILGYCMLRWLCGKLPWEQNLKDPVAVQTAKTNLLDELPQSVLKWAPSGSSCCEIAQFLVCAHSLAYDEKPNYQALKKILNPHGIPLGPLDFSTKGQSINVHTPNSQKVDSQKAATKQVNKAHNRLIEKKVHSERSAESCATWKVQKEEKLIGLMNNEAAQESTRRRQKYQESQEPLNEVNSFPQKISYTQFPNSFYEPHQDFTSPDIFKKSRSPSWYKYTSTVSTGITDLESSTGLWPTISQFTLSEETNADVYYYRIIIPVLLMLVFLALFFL
UniProt P29320, sequence (whole entry, looked up): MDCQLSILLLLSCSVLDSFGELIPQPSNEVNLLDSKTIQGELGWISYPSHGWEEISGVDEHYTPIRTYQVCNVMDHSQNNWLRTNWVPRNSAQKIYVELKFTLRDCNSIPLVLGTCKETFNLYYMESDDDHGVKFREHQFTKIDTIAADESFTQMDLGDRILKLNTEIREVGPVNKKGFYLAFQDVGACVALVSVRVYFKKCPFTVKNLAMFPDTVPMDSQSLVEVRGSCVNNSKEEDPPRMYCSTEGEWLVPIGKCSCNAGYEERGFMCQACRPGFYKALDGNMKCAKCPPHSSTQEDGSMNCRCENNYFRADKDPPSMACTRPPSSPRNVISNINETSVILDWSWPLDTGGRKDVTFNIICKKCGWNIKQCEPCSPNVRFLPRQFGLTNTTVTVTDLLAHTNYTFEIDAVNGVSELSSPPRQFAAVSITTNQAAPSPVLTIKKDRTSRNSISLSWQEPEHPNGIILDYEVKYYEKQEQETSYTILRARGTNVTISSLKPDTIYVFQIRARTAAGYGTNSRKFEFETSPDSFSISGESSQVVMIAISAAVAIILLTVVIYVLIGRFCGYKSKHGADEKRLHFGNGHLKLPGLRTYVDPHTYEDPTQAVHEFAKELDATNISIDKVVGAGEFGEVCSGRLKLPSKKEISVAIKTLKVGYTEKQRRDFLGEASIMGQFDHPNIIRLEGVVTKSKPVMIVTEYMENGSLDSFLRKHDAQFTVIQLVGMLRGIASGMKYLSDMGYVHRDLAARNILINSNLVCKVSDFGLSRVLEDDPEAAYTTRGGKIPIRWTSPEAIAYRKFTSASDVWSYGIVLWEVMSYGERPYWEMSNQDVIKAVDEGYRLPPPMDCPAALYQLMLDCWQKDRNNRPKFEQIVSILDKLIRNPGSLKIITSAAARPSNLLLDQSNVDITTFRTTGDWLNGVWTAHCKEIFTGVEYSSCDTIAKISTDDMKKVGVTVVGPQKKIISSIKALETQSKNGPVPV
UniProt Q06187, sequence (whole entry, looked up): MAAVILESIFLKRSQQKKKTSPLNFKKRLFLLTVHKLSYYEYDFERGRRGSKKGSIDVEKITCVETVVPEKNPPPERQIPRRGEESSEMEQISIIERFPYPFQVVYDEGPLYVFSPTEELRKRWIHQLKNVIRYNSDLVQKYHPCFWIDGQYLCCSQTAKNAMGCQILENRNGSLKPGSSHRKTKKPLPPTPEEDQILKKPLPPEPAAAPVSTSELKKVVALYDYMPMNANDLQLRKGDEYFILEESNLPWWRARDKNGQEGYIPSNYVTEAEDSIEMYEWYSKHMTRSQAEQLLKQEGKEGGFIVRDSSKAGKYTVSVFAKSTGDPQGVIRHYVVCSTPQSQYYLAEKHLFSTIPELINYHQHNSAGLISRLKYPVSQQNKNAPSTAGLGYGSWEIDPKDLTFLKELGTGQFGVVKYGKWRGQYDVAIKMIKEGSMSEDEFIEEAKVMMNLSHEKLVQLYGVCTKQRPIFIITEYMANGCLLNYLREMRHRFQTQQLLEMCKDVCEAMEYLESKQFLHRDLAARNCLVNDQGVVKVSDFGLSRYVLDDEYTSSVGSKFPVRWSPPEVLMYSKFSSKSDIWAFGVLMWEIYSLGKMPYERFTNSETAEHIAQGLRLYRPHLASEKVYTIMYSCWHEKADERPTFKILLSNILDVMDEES
UniProt Q9Y2U5, sequence (whole entry, looked up): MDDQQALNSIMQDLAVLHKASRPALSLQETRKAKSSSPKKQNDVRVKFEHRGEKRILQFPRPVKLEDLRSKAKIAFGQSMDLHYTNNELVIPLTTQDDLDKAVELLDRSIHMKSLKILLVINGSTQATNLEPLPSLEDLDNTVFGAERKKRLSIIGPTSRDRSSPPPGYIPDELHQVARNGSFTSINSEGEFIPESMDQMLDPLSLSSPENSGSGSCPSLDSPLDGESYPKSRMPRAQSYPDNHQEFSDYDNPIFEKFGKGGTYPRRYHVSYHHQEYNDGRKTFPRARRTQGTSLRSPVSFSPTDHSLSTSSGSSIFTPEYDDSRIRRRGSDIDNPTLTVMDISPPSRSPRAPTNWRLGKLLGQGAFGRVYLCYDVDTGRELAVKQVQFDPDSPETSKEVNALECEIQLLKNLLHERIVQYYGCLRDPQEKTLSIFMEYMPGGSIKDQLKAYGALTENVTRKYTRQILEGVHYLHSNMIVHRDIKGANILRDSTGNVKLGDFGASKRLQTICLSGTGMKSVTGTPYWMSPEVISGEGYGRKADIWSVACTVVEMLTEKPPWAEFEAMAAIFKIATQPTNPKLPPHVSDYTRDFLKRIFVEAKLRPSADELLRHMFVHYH
UniProt O15530, sequence (whole entry, looked up): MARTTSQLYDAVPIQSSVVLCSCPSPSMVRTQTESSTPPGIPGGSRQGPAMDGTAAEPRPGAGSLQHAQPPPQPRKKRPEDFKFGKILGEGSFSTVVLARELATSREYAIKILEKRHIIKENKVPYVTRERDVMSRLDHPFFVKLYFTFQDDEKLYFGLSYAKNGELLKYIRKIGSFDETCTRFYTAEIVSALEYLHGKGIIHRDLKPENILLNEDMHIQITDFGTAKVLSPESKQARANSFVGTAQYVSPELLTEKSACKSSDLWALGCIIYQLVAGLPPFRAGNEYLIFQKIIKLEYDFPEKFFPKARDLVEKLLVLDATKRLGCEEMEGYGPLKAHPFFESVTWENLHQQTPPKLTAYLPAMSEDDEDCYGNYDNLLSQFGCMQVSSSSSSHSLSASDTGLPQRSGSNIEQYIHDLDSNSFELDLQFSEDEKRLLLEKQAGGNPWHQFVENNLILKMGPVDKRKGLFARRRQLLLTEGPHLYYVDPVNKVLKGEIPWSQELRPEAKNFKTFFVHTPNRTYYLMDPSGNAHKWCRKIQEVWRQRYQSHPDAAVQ

Block 1
Cell line: Huh-7
Tested at: 10 µM
Time: 24 h
Quantity: viability
[H]/N=C(\N/C(=N/[H])NCCCCCCNC(=N)NC(=N)Nc1ccc(Cl)cc1)Nc1ccc(Cl)cc1: 72.4%
CC(=O)N(c1onc(C)c1C)S(=O)(=O)c1ccc(N)cc1: 97%
CCCCC(=O)O[C@]1(C(=O)CO)[C@@H](C)C[C@H]2[C@@H]3CCC4=CC(=O)C=C[C@]4(C)[C@@]3(F)[C@@H](O)C[C@@]21C: 103%
NCCNCCNCCN: 98.1%
CCOC(=O)[C@H](CCc1ccccc1)N[C@H]1CCc2ccccc2N(CC(=O)O)C1=O: 96%
O=C1NCC2(CCN(CCc3ccccc3)CC2)O1: 98.3%
CC1(C)O[C@@H]2C[C@H]3[C@@H]4CCC5=CC(=O)C=C[C@]5(C)[C@@]4(F)[C@@H](O)C[C@]3(C)[C@]2(C(=O)CO)O1: 96.6%
CN(C)CCC(c1ccccc1)c1ccccn1 (stereo not shown): 100%
Clc1ccc(C(Cn2ccnc2)OCc2ccsc2Cl)c(Cl)c1 (stereo not shown): 81.7%
Oc1c(Cl)cc(Cl)c2cccnc12: 94.3%
CC1=C(C/C=C(\C)CCC[C@H](C)CCC[C@H](C)CCCC(C)C)C(=O)c2ccccc2C1=O: 99.9%
CC(CN1c2ccccc2Sc2ccccc21)N(C)C (stereo not shown): 97.2%

Block 2
Target: Protein kinase C beta type, isoform beta-I (PRKCB, Homo sapiens, UniProt P05771)
UniProt P05771, sequence (whole entry, looked up): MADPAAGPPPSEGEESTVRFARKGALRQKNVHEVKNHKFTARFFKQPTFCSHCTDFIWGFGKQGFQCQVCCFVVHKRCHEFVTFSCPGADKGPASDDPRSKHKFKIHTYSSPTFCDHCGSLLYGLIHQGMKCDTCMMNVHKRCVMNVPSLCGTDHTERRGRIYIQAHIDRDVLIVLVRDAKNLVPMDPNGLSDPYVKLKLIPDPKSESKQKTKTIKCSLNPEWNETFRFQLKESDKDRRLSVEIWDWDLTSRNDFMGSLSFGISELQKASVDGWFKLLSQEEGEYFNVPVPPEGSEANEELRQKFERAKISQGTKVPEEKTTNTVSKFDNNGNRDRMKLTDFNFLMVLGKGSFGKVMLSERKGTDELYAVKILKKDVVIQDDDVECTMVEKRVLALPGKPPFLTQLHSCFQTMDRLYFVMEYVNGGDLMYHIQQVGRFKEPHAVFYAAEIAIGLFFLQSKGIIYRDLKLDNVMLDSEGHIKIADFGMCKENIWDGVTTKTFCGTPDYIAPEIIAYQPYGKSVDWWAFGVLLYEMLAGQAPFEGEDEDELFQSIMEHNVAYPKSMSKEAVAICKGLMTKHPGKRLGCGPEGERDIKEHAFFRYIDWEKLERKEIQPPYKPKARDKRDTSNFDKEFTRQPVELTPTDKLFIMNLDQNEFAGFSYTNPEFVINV
Effect on: enzyme activity
Action: inhibitor
Tested at: 0.5 µM
Baseline: control
Quantity: remaining activity
CN(C)c1ccc(C=C2C(=O)Nc3ccccc32)cc1: 96.1%
O=C1NC(=O)C(c2cn(CCCn3ccnc3)c3ccccc23)=C1Nc1ccccc1: 9.78%
Nc1ccc2ncnc(NCCc3ccc(Oc4ccccc4)cc3)c2c1: 96.3%
Cc1nc(-c2ccccc2)c(-c2ccncc2)o1: 95.2%
O=C(CCCc1ccc(-c2ccccc2F)cc1)Nc1ccc(O)cc1: 93.4%
COc1cc2nccc(Oc3ccc(NC(=S)NC(=O)c4ccccc4C)cc3)c2cc1OC: 91.9%
CCOC(=O)c1c(C)[nH]c(/C=C2\C(=O)Nc3ccccc32)c1C: 103%
Cc1ccc(NC(=O)c2ccc(CN3CCN(C)CC3)cc2)cc1Nc1nc(-c2cccnc2)cs1: 101%
Cn1c2ccccc2c2c3c(c4c5ccccc5n(CCC#N)c4c21)CNC3=O: 18.7%
O=C(O)c1ccc2c3c1cccc3c(=O)n1c3ccccc3nc21: 89.8%
CC(C)[C@H](CO)Nc1nc(Nc2cc(N)cc(Cl)c2)c2ncn(C(C)C)c2n1: 98.8%
Cn1sc(=O)n(Cc2ccccc2)c1=O: 110%
CO[C@H]1C[C@@H]2CC[C@@H](C)[C@@](O)(O2)C(=O)C(=O)N2CCCC[C@H]2C(=O)O[C@H]([C@H](C)C[C@@H]2CC[C@@H](O)[C@H](OC)C2)CC(=O)[C@H](C)/C=C(\C)[C@@H](O)[C@@H](OC)C(=O)[C@H](C)C[C@H](C)/C=C/C=C/C=C/1C: 102%
COc1ccc(C(=O)Nc2sc3c(c2C(N)=O)CCCC3)cc1OC: 91.8%
N#CCCc1ccc2c(c1)-c1[nH]c3ccc([N+](=O)[O-])cc3c1CC(=O)N2: 97.4%
COc1cc2ncnc(Nc3ccc(F)c(Cl)c3)c2cc1OCCCN1CCOCC1: 95%

Block 3
SMILES: C=CC(=O)N1CCC([C@@H]2CCNc3c(C(N)=O)c(-c4ccc(Oc5ccccc5)cc4)nn32)CC1
Tested at: 1 µM
Quantity: inhibition
CDK13 (Homo sapiens, UniProt Q14004); enzyme activity, inhibitor: 0%
SRPK3 (Homo sapiens, UniProt Q9UPE1); enzyme activity, inhibitor: 0%
VRK2 (Homo sapiens, UniProt Q86Y07); enzyme activity, inhibitor: 17%
PIKFYVE (Homo sapiens, UniProt Q9Y2I7); enzyme activity, inhibitor: 5%
DCLK3 (Homo sapiens, UniProt Q9C098); enzyme activity, inhibitor: 0%
PTK6 (Homo sapiens, UniProt Q13882); enzyme activity, inhibitor: 95%
PRKACB (Homo sapiens, UniProt P22694); enzyme activity, inhibitor: 36%
TGFBR1 (Homo sapiens, UniProt P36897); cell-free assay: 6%

Block 4
Structure (SMILES): CSc1cccnc1N1CCN(Cc2nc3ccccc3[nH]2)CC1
Effect on: cell-free assay
Technique: competition with immobilised ligand
Tested at: 1 µM
Quantity: remaining binding
PRKD1 (Homo sapiens, UniProt Q15139): 100%
PDPK1 (Homo sapiens, UniProt O15530): 99%
STK25 (Homo sapiens, UniProt O00506): 100%
STK33 (Homo sapiens, UniProt Q9BYT3): 91%
MAP3K2 (Homo sapiens, UniProt Q9Y2U5): 82%
EPHA3 (Homo sapiens, UniProt P29320): 100%
BTK (Homo sapiens, UniProt Q06187): 79%
PIK3CA (Homo sapiens, UniProt P42336, C420R): 100%
PRKCH (Homo sapiens, UniProt P24723): 100%
EPHA6 (Homo sapiens, UniProt Q9UF33): 100%

A few entries again (block 2):
COc1cc2ncnc(Nc3ccc(F)c(Cl)c3)c2cc1OCCCN1CCOCC1: 95%
Cn1c2ccccc2c2c3c(c4c5ccccc5n(CCC#N)c4c21)CNC3=O: 18.7%
Cc1nc(-c2ccccc2)c(-c2ccncc2)o1: 95.2%
Cc1ccc(NC(=O)c2ccc(CN3CCN(C)CC3)cc2)cc1Nc1nc(-c2cccnc2)cs1: 101%
Cn1sc(=O)n(Cc2ccccc2)c1=O: 110%
CC(C)[C@H](CO)Nc1nc(Nc2cc(N)cc(Cl)c2)c2ncn(C(C)C)c2n1: 98.8%
N#CCCc1ccc2c(c1)-c1[nH]c3ccc([N+](=O)[O-])cc3c1CC(=O)N2: 97.4%
